# Results from different studies.
# Compare with care: the assays were run in different laboratories. Several values in a cell are separate wells, animals, samples, runs or records. ± gives the spread as reported.
# MAPK8: Mitogen-activated protein kinase 8 (MAPK8, Homo sapiens, UniProt P45983)
SMILES,target or system,assay,test system,conditions,scale,quantity,result
CC[C@H](C)[C@@H]1NC(=O)[C@H](Cc2c[nH]c3ccccc23)NC(=O)[C@H](Cc2ccccc2)N(C)C(=O)[C@H](C(C)C)NC(=O)[C@H](CC(C)C)NC(=O)[C@H](Cc2ccccc2)NC(=O)CSC[C@@H](C(=O)N[C@@H](CC(N)=O)C(N)=O)NC(=O)[C@H](Cc2ccccc2)NC1=O,"STING1 (Homo sapiens, UniProt Q86WV6, H232R)","thermal stability, DSF",,100 µM,,ΔTm,2.72 °C
CN(Cc1cc(C2CC2)on1)C(=O)c1cccc(-c2ccc3c(c2)CCO3)c1,acetoacetyl-CoA synthetase (Cryptococcus neoformans),"enzyme activity, inhibitor",,125 µM,,remaining activity,85.2%
O=C1c2sc(-c3ccc(N4CCC(F)C4)nc3F)nc2CCN1c1cccnc1 (centres unmarked),"TAR DNA-binding protein 43, aggregated (TARDBP, Homo sapiens, UniProt Q13148)",radioligand binding,"human, FTLD-TDP type A insoluble extract",200 nM,,specific binding,4.13 nM and 5.33 nM
COC(=O)[C@@]1(Cc2ccccc2)C=C(C(=O)OC(C)(C)C)C(=O)CC1,MAPK8,"D-peptide binding, inhibitor, FP peptide displacement",,125 µM,lower is stronger displacement,fraction bound,-0.0933
C[C@@H]1C[C@H](Nc2ccccc2)c2cc(F)ccc2N1C(=O)c1ccc(C#N)cc1,"Ecdysone receptor (Aedes albopictus, UniProt Q9U3Y4)","ligand binding, inhibitor",intact cells,together with: [3H]ponasterone A,direction not given,pIC50 Z-score,1.17
COc1ccccc1-c1ccncc1C(=O)Nc1nnc(OCc2ccc(Cl)cc2)s1,"DNA polymerase theta, helicase domain (POLQ, Homo sapiens, UniProt O75417)","ATPase activity, ADP-Glo",,"0.002 µM, together with: ATP 100 µM",,remaining activity,85%
CCCCCC=CC=C1C(=O)C=CC1CC=CCCCC(=O)O (centres unmarked),"Elongation factor 2 (EEF2, Homo sapiens, UniProt P13639)",competitive isoTOP-ABPP,"proteome, soluble, MDA-MB-231","100 µM, together with: iodoacetamide probe","relative to: DMSO over compound-treated, higher = stronger cysteine blockade",isoTOP-ABPP competition ratio,2.6
COc1cc(Nc2nccc(-c3cnn4nc(OC)ccc34)n2)cc(C(F)(F)F)c1,"Tyrosine-protein kinase ABL1, non-phosphorylated (ABL1, Homo sapiens, UniProt P00519, F317L)",binding,,1 µM,,remaining binding,100%
C=C1CC2(C(=O)OC)C=C(C(=O)OC(C)(C)C)C(=O)C1C2 (centres unmarked),"Mitogen-activated protein kinase 8, with MKK7 (MAPK8, Homo sapiens, UniProt P45983)","protein-protein interaction, NanoBiT, refers to: MKK7-JNK1 binding",HEK293T,10 µM,relative to: DMSO control,luminescence relative to control,0.611
N=C(N)NCCS(=O)(=O)O,"SLC6A6 (Homo sapiens, UniProt P31641, G62A)","binding, microscale thermophoresis",,"31.3 µM, room temperature, together with: 50 nM labelled protein",higher = more binding,normalised MST signal,0.025
CCC1(CC)C(=O)N(c2cc(C(=O)OC)cc(C(=O)N3CCN(Cc4ccc(Br)cc4)CC3)c2)C1=O,"Dipeptidyl peptidase 8 (Homo sapiens, UniProt Q6V1X1)",inhibitor,,together with: GP-AMC substrate,relative to: Ki' DPP9 over Ki' DPP8,selectivity ratio,5
Cc1ncsc1-c1ccc(C(C)NC(=O)C2CC(O)CN2C(=O)C(NC(=O)CCCCCCCCCCN2CCCC(Nc3ncc(Cl)c(Nc4ccccc4S(=O)(=O)C(C)C)n3)C2)C(C)(C)C)cc1 (centres unmarked),22Rv1,"RNA-seq, refers to: MTHFR mRNA",,concentration not given,relative to: DMSO,log2 fold change,-1.33
Cc1ccc(C(=O)Nc2ccc(CN3CCN(C)CC3)c(C(F)(F)F)c2)cc1C#Cc1cnc2cccnn12,"WEE2 (Homo sapiens, UniProt P0C1S8)","target engagement, NanoBRET",human cells,,,upper asymptote,208
CC(C)Oc1cc(Cl)ccc1CNc1cc(-c2ccccc2)nc2ncnn12,"GPR3 (Homo sapiens, UniProt P46089, L128A)","agonist, cAMP GloSensor",,L128A mutant,relative to: wild type,potency improvement,~6 fold
CN(C)c1ccc(-n2cc(COC(=O)[C@@]3(C)C=C(C(=O)OC(C)(C)C)C(=O)CC3)nn2)cc1,MAPK8,"D-peptide binding, inhibitor, FP peptide displacement",,6.25 µM,lower is stronger displacement,fraction bound,0.928
O=C(CCCCCCS)Nc1ccccc1,"HDAC8 (Homo sapiens, UniProt Q9BY41)",ITC,Tris buffer,"concentration not given, pH 7.5",,binding stoichiometry,1
Cc1cnc2nc1Nc1cccc(c1)COC/C=C/COCc1cc(ccc1OCCN1CCOCC1)N2,"ABL1 (Homo sapiens, UniProt P00519, Q252H)",,,0.1 µM,relative to: DMSO control,remaining binding,51%
Clc1ccc(COC(Cn2ccnc2)c2ccc(Cl)cc2Cl)cc1 (centres unmarked),"ULK1 (Homo sapiens, UniProt O75385)","enzyme activity, inhibitor, ADP detection",,0.1 µM,,activity vs control,106%
CC(C)[C@@H]1NC(=O)[C@H](Cc2ccccc2)NC(=O)CSC[C@@H](C(N)=O)NC(=O)[C@H](CCC(=O)O)NC(=O)[C@H](CO)NC(=O)[C@H](Cc2c[nH]c3cccc(Cl)c23)NC(=O)[C@H](C2CCCCC2)NC(=O)[C@H](C(C)C)NC(=O)[C@H](Cc2ccc(O)cc2)NC(=O)[C@H](CC(=O)O)NC(=O)[C@H](Cc2c[nH]c3ccccc23)NC(=O)[C@H](Cc2ccc(N)nc2)NC(=O)[C@H](Cc2c[nH]c3ccc(Cl)cc23)NC(=O)[C@H](CCC(=O)O)NC1=O,"Interleukin-1 receptor-like 2 (IL1RL2, Homo sapiens, UniProt Q9HB29)","reporter gene (SEAP), inhibitor, HEK-Blue IL-36R reporter",HEK-Blue IL-36R cells,"0.005 µM, 6 h, together with: IL-36β 100 ng/mL",,remaining activity,94.2%
C/C1=C\CC/C(C)=C/CC(C)(C)/C=C/C1,"Trpv1 (Rattus norvegicus, UniProt O35433, S512A/T550A/Y511A)","inhibitor, outside-out patch clamp",,"10 µM, vanilloid-site triple mutant, together with: pH 5.5 activation",,remaining current fraction,0.51 ± 0.03
Nc1ccn([C@@H]2O[C@H](COP(=O)(O)OP(=O)(O)OP(=O)(O)O)[C@@H](O)[C@@H]2O)c(=O)n1,"Genome polyprotein, NS5B (Hepatitis C virus genotype 1b, UniProt Q9WMX2)","nucleotide incorporation, substrate",,,,Vmax,0.72 fraction per time
CCCCCCCC/C=C\CCCCCCCC(=O)OCC(O)COP(=O)(O)O (centres unmarked),"LPAR1 (Homo sapiens, UniProt Q92633)","G-protein dissociation, agonist, NanoBiT",HEK-293T,"10 nM, wild-type receptor",relative to: baseline luminescence,fold change,0.836 and 0.839 and 0.845 and 0.874 and 0.86 and 0.838
COC1CN([C@H]2CC[C@H]([C@@]3(C)Oc4c(Cl)cc(C(=O)NCc5c(SC)cc(C)[nH]c5=O)c(C)c4O3)CC2)C1,,"RNA-seq, refers to: FNBP1L","human, whole blood","dose not given, 24 h",relative to: pretreatment baseline,log2 fold change,1.61
C=CC(=O)N1CCCC(n2c(=O)c3ncccc3n(Cc3ccc(Oc4ccccc4)cc3)c2=O)C1 (centres unmarked),"NudC domain-containing protein 2 (NUDCD2, Homo sapiens, UniProt Q8WVJ2)","thermal proteome profiling, refers to: NUDCD2",,treated,,melting temperature,45.4 °C and 56.2 °C
Cc1cn(CC(=O)N(CCNC(=O)CN(CCNC(=O)CN(CCNC(=O)CN(CCNC(=O)CN(CCNC(=O)CN(CCNC(=O)CN(CCNC(=O)CN(CCN)C(=O)Cn2cnc3c(=O)[nH]c(N)nc32)C(=O)Cn2cnc3c(N)ncnc32)C(=O)Cn2cc(C)c(=O)[nH]c2=O)C(=O)Cn2cnc3c(=O)[nH]c(N)nc32)C(=O)Cn2cc(C)c(=O)[nH]c2=O)C(=O)Cn2cnc3c(=O)[nH]c(N)nc32)C(=O)Cn2cnc3c(N)ncnc32)CC(=O)NCCN(CC(=O)NCCOCCOCC(N)=O)C(=O)Cn2cnc3c(N)ncnc32)c(=O)[nH]c1=O,complementary RNA,"duplex formation, UV melting curve fit",PBS,1 µM,,ΔH,-60.9 ± 0.1 kcal/mol
Cc1cc(C)cc(COc2cc3c(cc2OCc2cc(C)cc(C)c2)C2CC(O)(Cc4cn(CCOCCOCCNC(=O)CCCCC5SCC6NC(=O)NC65)nn4)CC(C)N2CC3)c1 (centres unmarked),"Exportin-1 (XPO1, Homo sapiens, UniProt O14980)",biotinylated probe pull-down,,10 µM probe,relative to: heavy over light,SILAC ratio,2.85
CCCCCCCCCCCCC/C=C/C=O,"TBC1 domain family member 13 (TBC1D13, Homo sapiens, UniProt Q9NVG8)",competitive isoTOP-ABPP,Ramos soluble proteome,"100 µM, 60 min, together with: iodoacetamide probe","relative to: DMSO over compound-treated, higher = stronger cysteine blockade",isoTOP-ABPP competition ratio,1
O=[N+]([O-])c1cc(Br)cc([N+](=O)[O-])c1NS(=O)(=O)c1ccc(Br)cc1,"PYL10, with HAB1 (Arabidopsis thaliana, UniProt Q8H1R0)",antagonist,,"20 µM, together with: ABA 5 µM",higher = more HAB1 activity,HAB1 phosphatase activity,0.086 a.u. and 0.085 a.u. and 0.084 a.u.
CCn1cc(-c2cccc(C(F)(F)F)c2)c2sc(C(=N)NC3CCS(=O)(=O)CC3)cc2c1=O,"Bromodomain-containing protein 3, BD2 (BRD3, Homo sapiens, UniProt Q15059)",,,,,ΔTm,2.8 °C
